Assay results pooled from the literature.
Lines come from different studies, so protocols differ. Numbers after ± are the reported error.

Cn1cncc1-c1c(F)cncc1NC(=O)c1c(N)nn2cc(F)cnc12
apparent clearance (human patients, plasma; oral, 90 mg): 49.1 L/h

C[C@H](Cn1cnc2c(N)ncnc21)OCP(=O)(O)O
apparent clearance (population PK model; human, plasma; oral, reduced model bootstrap median): 43.3 L/h

C=CC(=O)N(C)CCOc1c(N)ncnc1-c1cc(F)cc(NC(=O)c2ccc(C3CC3)cc2F)c1C
apparent clearance CL/F (human, whole blood; oral, 400 mg, single ascending dose): 543 L/h

NC[C@@]1(CC(=O)O)[C@@H]2CC[C@H]3C[C@@H]2[C@@H]1C3
apparent clearance (human, moderate renal impairment, plasma; oral, 20 mg single dose, geometric mean): 5.1 L/h

O=C(Nc1nc2cccc(-c3ccc(CN4CCS(=O)(=O)CC4)cc3)n2n1)C1CC1
apparent central volume (population PK model estimate; human; oral, dose not given): 104 L

Cn1nnc2c(C(N)=O)ncn2c1=O
apparent clearance CL/F (human patients, plasma; added: talazoparib): 8.3 ± 5.4 L/h/m2

C[C@@H]1CCO[C@H]2Cn3cc(C(=O)NCc4ccc(F)cc4F)c(=O)c(O)c3C(=O)N12
apparent volume of distribution (population PK model; paediatric humans, plasma; oral, dose not given): 13.6 L

N[C@@H]1c2cccnc2[C@H](OC(=O)N2CCC(n3c(=O)[nH]c4ncccc43)CC2)CC[C@H]1c1cccc(F)c1F
apparent clearance CL/F (population PK model; human; oral): 24.1 L/h

Cl.[2H]C([2H])([2H])CC(=O)c1cnc(NC(=O)C2CC2)cc1Nc1cccc(-c2ncn(C([2H])([2H])[2H])n2)c1OC
apparent clearance (human, non-fasted; oral, 30 mg twice daily, day 14, multiple dose, tablet, geometric mean): 16 L/h

NC(=O)N1c2ccccc2CC(=O)c2ccccc21
apparent volume of distribution (population PK modelling; human patients, plasma; oral, dose not given, weight-scaled, no back-conversion): 20 L

COc1cc(C(=O)NC2CCN(C)CC2)c(F)cc1Nc1ncc(C(F)(F)F)c(Oc2cccc3c2C(=O)N(C)C3)n1
apparent oral clearance CL/F (human patients, plasma; oral, 300 mg single dose, geometric mean): 98.6 mL/min

Cc1nc(Nc2ncc(C(=O)Nc3c(C)cccc3Cl)s2)cc(N2CCN(CCO)CC2)n1
apparent oral clearance (human patients, plasma; 85 mg/m^2, day 8): 2250 ± 1110 mL/min/m²

Cc1cc(C)c(CNC(=O)c2cc(Cl)c3c(c2C)O[C@@](C)([C@H]2CC[C@H](N(C)C)CC2)O3)c(=O)[nH]1
apparent volume of distribution (unbound) (human, plasma; oral, 200 mg, cycle 1 day 15, mean): 7130 L

COc1ccc(-n2nc(C(N)=O)c3c2C(=O)N(c2ccc(N4CCCCC4=O)cc2)CC3)cc1
apparent peripheral volume (human, plasma; oral, dose not given, Final population PK model): 23.9 ± 1.81 L

NC(N)=NCCC[C@@H](N)C(=O)N[C@@H](CCCN=C(N)N)C(=O)N1CCC[C@H]1C(=O)N1C[C@H](O)C[C@H]1C(=O)NCC(=O)N[C@@H](Cc1cccs1)C(=O)N[C@@H](CO)C(=O)N1Cc2ccccc2C[C@@H]1C(=O)N1[C@H](C(=O)N[C@@H](CCCN=C(N)N)C(=O)O)C[C@@H]2CCCC[C@@H]21
apparent clearance (CL/F) (popPK full model bootstrap median; human; subcutaneous): 15.4 L/h

CNC(=O)c1ccc(N2C(=S)N(c3ccc(C#N)c(C(F)(F)F)c3)C(=O)C2(C)C)cc1F
apparent peripheral volume (population PK final model; human, male; oral, dose not given): 45.9 L

Cn1cc(-c2cn3nccc3c(-c3cnn([C@]4(CC#N)C[C@@H](C#N)C4)c3)n2)cn1
apparent clearance CL/F (healthy humans fasted, plasma; 30 mg single dose, geometric mean): 35.4 L/h

C[C@@]1(c2cc(NC(=O)c3ccc(C#N)cn3)ccc2F)C=CSC(N)=N1
apparent clearance CL/F (elderly humans, both sexes, plasma; oral, 30 mg single dose, mean): 12.3 L/h

For quick reference, copied from above:
C=CC(=O)N(C)CCOc1c(N)ncnc1-c1cc(F)cc(NC(=O)c2ccc(C3CC3)cc2F)c1C
apparent clearance CL/F (human, whole blood; oral, 400 mg, single ascending dose): 543 L/h

Cc1cc(C)c(CNC(=O)c2cc(Cl)c3c(c2C)O[C@@](C)([C@H]2CC[C@H](N(C)C)CC2)O3)c(=O)[nH]1
apparent volume of distribution (unbound) (human, plasma; oral, 200 mg, cycle 1 day 15, mean): 7130 L
